{"data": "Results from different studies", "AHR": "Aryl hydrocarbon receptor (AHR, Homo sapiens, UniProt P35869)", "note": "Numbers after ± are the reported error.", "UniProt P35869, sequence (whole entry, looked up)": "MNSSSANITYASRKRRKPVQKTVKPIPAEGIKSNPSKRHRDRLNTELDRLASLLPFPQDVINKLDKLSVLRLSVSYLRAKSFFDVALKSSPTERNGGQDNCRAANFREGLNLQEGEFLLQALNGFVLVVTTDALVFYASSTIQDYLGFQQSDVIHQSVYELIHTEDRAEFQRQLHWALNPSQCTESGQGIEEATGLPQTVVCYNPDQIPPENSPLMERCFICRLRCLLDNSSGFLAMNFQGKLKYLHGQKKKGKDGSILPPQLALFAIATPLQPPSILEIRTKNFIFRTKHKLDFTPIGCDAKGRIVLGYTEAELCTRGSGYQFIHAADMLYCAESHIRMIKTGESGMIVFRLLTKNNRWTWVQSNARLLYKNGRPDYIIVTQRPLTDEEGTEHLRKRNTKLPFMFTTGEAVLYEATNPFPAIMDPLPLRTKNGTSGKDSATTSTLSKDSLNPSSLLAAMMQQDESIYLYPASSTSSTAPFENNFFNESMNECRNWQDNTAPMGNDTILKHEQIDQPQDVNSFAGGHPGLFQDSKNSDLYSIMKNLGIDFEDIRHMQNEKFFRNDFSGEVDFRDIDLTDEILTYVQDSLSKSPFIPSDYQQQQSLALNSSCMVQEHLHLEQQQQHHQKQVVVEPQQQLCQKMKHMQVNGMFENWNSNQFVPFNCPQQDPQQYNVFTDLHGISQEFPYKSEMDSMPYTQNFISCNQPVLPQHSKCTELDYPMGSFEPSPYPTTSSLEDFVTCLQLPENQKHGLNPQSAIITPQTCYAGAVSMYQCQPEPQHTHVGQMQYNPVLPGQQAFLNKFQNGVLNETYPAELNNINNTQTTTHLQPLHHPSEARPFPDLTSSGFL", "UniProt P28472, sequence (whole entry, unmodified, looked up)": "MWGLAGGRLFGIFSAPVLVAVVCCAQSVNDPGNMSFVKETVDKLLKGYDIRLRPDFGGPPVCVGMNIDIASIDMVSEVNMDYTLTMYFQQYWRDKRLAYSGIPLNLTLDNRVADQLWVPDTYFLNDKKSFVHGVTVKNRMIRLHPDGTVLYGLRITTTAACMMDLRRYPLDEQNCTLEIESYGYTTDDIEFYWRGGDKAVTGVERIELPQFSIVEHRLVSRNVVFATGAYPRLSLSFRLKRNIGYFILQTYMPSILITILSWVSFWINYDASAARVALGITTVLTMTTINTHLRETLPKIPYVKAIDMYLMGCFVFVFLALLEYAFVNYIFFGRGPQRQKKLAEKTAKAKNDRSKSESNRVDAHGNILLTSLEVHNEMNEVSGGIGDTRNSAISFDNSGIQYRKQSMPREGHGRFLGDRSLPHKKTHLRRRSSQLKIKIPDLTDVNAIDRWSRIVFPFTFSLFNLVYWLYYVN", "UniProt P14867, sequence (whole entry, unmodified, looked up)": "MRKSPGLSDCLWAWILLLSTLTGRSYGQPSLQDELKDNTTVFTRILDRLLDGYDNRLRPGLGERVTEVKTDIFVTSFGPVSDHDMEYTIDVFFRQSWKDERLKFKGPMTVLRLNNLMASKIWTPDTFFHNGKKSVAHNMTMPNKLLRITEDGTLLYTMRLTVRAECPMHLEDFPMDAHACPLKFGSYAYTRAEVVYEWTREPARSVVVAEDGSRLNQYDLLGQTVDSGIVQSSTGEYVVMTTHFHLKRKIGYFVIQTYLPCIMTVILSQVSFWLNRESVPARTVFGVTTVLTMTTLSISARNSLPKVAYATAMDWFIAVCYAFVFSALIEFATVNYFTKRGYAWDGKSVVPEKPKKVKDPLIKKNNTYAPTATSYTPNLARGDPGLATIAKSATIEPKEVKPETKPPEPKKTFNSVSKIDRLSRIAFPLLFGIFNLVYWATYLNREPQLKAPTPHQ", "UniProt P41143, sequence (whole entry, looked up)": "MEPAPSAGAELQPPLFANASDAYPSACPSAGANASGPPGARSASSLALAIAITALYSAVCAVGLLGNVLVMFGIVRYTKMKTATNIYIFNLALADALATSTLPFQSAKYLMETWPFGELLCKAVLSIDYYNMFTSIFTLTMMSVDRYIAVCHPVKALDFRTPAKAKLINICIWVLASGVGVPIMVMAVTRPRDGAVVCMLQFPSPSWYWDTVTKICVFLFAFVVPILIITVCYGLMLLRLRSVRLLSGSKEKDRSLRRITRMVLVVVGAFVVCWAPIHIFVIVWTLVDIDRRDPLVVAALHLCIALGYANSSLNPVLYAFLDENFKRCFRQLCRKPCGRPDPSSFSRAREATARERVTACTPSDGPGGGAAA", "UniProt Q704Y3, sequence (whole entry, unmodified, looked up)": "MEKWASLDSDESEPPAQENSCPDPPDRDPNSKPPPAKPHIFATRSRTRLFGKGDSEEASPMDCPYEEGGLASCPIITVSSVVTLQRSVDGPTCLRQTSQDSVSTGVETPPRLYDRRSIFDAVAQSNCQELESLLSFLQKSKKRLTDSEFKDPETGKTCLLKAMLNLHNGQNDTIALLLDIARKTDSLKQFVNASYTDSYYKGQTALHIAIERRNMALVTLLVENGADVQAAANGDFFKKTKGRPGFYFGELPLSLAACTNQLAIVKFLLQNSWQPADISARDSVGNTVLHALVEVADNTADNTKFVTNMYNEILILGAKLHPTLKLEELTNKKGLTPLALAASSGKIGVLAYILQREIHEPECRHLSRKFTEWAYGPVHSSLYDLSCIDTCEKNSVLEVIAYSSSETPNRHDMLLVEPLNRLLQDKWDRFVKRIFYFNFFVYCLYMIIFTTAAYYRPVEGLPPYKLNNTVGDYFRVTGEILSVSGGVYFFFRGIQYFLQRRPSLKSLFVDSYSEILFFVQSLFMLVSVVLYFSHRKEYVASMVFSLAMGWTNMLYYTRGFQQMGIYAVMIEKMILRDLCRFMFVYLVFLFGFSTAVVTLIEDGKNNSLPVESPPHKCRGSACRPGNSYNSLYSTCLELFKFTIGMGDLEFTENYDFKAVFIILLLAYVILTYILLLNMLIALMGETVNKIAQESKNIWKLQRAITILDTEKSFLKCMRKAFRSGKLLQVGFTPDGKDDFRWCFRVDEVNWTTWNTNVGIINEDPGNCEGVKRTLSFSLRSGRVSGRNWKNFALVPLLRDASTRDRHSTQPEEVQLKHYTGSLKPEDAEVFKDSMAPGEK", "UniProt P28223, sequence (whole entry, looked up)": "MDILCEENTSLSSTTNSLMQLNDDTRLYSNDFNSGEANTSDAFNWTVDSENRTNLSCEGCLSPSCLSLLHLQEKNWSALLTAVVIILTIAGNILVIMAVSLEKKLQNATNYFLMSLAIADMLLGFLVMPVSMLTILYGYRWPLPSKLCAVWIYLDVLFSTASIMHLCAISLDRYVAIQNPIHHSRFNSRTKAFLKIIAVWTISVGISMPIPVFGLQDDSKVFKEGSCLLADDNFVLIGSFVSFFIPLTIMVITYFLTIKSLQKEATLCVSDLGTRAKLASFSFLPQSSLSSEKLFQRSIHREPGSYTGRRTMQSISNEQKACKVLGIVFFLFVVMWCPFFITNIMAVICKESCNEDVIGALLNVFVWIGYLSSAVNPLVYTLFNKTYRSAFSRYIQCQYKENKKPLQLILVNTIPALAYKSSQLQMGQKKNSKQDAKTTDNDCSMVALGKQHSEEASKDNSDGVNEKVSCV"}
{"SMILES": "CCCCCCCCCCC[C@@H](C[C@@H]1OC(=O)[C@H]1CCCCCC)OC(=O)[C@H](CC(C)C)NC=O", "target": "Gag polyprotein, nucleocapsid protein p7 (gag, Human immunodeficiency virus type 1 group M subtype B, UniProt P04591)", "assay": "NCp7-RNA binding enhancement, AlphaScreen", "conditions": "with: U3 RNA", "scale": "baseline: DMSO", "EC50": "25.7 µM"}
{"SMILES": "c1ccc2c3c(ccc2c1)-c1cccc2cccc-3c12", "target": "Aryl hydrocarbon receptor (Danio rerio, UniProt Q9YGV3)", "assay": "agonist", "test system": "ZF4 reporter cells", "conditions": "22 to 24 h", "EC50": "0.0274 µM"}
{"SMILES": "COc1cc(CCNC2CCCc3cccc(O)c32)c(OC)cc1C#N (stereo not shown)", "target": "HTR2A (Homo sapiens, UniProt P28223)", "assay": "agonist", "EC50": "0.15 µM"}
{"SMILES": "C[C@H](c1ccccc1)n1cncc1C(=O)OCCC(=O)O", "target": "GABA-A receptor alpha-1/beta-3, with gamma-2 subunit (GABRA1/GABRB3, Homo sapiens, UniProt P14867+P28472, L291T)", "assay": "direct receptor activation, agonist, two-electrode voltage clamp", "test system": "Xenopus oocytes", "scale": "baseline: 100 µM GABA current", "EC50": "8300 µM"}
{"SMILES": "Cc1cccc2c1ccc1ccccc12", "target": "AHR", "assay": "reporter gene, agonist, yeast LacZ reporter", "test system": "Saccharomyces cerevisiae", "conditions": "18 h, 30 °C", "scale": "baseline: 50% of 100 µM phenanthrene activity", "EC50": "3.98 µM"}
{"SMILES": "C[C@@H](Cc1ccsc1)NC(=O)NC[C@H](Cc1ccc(O)cc1)N(C)C", "target": "OPRD1 (Homo sapiens, UniProt P41143)", "EC50": "0.108 ± 0.0403 µM"}
{"SMILES": "Clc1cc2c(cc1Cl)Oc1cc(Cl)c(Cl)cc1O2", "target": "Uncharacterized protein (Takifugu rubripes, UniProt Q4JHL2)", "assay": "reporter gene, agonist, dual-luciferase", "test system": "COS-7", "conditions": "24 h", "EC50": "0.00043 ± 0.00022 µM"}
{"SMILES": "CCCCC/C=C\\C/C=C\\C/C=C\\C/C=C\\CCCC(=O)NCCO", "target": "Trpv1 (Mus musculus, UniProt Q704Y3, E571S)", "assay": "ion current, agonist, whole-cell patch clamp", "conditions": "24 °C, E571S, +80 mV", "EC50": "7.49 ± 1.18 µM"}
{"SMILES": "CC[C@H](C)[C@H](NC(=O)[C@H](CO)NC(=O)[C@H](C)NC(=O)[C@H](Cc1ccc(OP(=O)(O)O)cc1)NC(=O)[C@H](CCC(=O)O)NC(=O)[C@@H](NC(=O)[C@H](Cc1c[nH]cn1)NC(=O)[C@H](CC(N)=O)NC(=O)[C@H](CC(N)=O)NC(=O)[C@@H]1CCCN1C(=O)[C@H](CCC(=O)O)NC(=O)[C@H](C)NC(=O)[C@H](C)NC(=O)[C@H](CCC(N)=O)NC(=O)[C@@H]1CCCN1C(=O)[C@H](C)NC(=O)[C@@H]1CCCN1C(=O)[C@H](CCCCN)NC(=O)[C@H](CCCCN)NC(=O)CNC(=O)[C@H](CCCCN)NC(=O)[C@@H]1CCCN1C(=O)[C@H](CC(C)C)NC(=O)[C@H](CC(N)=O)NC(=O)[C@H](CC(C)C)NC(=O)[C@H](CC(=O)O)NC(=O)[C@H](C)NC(=O)[C@H](Cc1ccc(OP(=O)(O)O)cc1)NC(=O)[C@@H](NC(=O)[C@@H](NC(=O)[C@@H](N)CC(=O)O)[C@@H](C)CC)[C@@H](C)O)[C@@H](C)O)C(=O)N[C@@H](CCC(N)=O)C(=O)N[C@H](C(=O)N[C@@H](CO)C(=O)O)[C@@H](C)O", "target": "PTPN11 (Homo sapiens, UniProt Q06124, R111E)", "assay": "enzyme activity, activator", "conditions": "pH 7.0, 0.2% DMSO, with: DiFMUP 100 µM, phosphopeptide", "EC50": "0.83 ± 0.03 µM"}
{"SMILES": "Cc1cc(C)nc(Nc2ccccc2)n1", "target": "AHR", "assay": "agonist", "EC50": "4.6 µM"}
{"note": "Some of these lines once more:"}
{"SMILES": "CC[C@H](C)[C@H](NC(=O)[C@H](CO)NC(=O)[C@H](C)NC(=O)[C@H](Cc1ccc(OP(=O)(O)O)cc1)NC(=O)[C@H](CCC(=O)O)NC(=O)[C@@H](NC(=O)[C@H](Cc1c[nH]cn1)NC(=O)[C@H](CC(N)=O)NC(=O)[C@H](CC(N)=O)NC(=O)[C@@H]1CCCN1C(=O)[C@H](CCC(=O)O)NC(=O)[C@H](C)NC(=O)[C@H](C)NC(=O)[C@H](CCC(N)=O)NC(=O)[C@@H]1CCCN1C(=O)[C@H](C)NC(=O)[C@@H]1CCCN1C(=O)[C@H](CCCCN)NC(=O)[C@H](CCCCN)NC(=O)CNC(=O)[C@H](CCCCN)NC(=O)[C@@H]1CCCN1C(=O)[C@H](CC(C)C)NC(=O)[C@H](CC(N)=O)NC(=O)[C@H](CC(C)C)NC(=O)[C@H](CC(=O)O)NC(=O)[C@H](C)NC(=O)[C@H](Cc1ccc(OP(=O)(O)O)cc1)NC(=O)[C@@H](NC(=O)[C@@H](NC(=O)[C@@H](N)CC(=O)O)[C@@H](C)CC)[C@@H](C)O)[C@@H](C)O)C(=O)N[C@@H](CCC(N)=O)C(=O)N[C@H](C(=O)N[C@@H](CO)C(=O)O)[C@@H](C)O", "target": "PTPN11 (Homo sapiens, UniProt Q06124, R111E)", "assay": "enzyme activity, activator", "conditions": "pH 7.0, 0.2% DMSO, with: DiFMUP 100 µM, phosphopeptide", "EC50": "0.83 ± 0.03 µM"}
